Measured values of several laboratories.
± gives the spread as reported.
Cell line: HCT-15
Time: 72 h

| SMILES | test | IC50 [µM] |
| --- | --- | --- |
| CC(C)Cc1ccc(C(C)C(=O)[O][Pt]([NH2])([NH2])([Cl])([Cl])[O]C(=O)CCCc2ccccc2)cc1 (centres unmarked) | cell growth or viability, MTT | 4.98 |
| CCCC(CCC)C(=O)[O][Pt]([Cl])([Cl])[O]C(C)=O.N.N | cell growth | 6.36 ± 1.03 |
| CC(C)c1cccc(C(C)C)c1-n1c2c([n+](-c3c(C(C)C)cccc3C(C)C)[c]1[Au-][Cl])-c1cccc3cccc-2c13 | cell growth or viability, MTT | 22 |
| CC(C)c1cccc(C(C)C)c1N1CCN(c2c(C(C)C)cccc2C(C)C)C1=[Se].[Cl][Au] | cell growth or viability, MTT | 7.8 |
| CC(=O)Oc1ccccc1C(=O)[O][Pt]([NH2])([NH2])([Cl])([Cl])[O]C(=O)C(Cl)Cl | cell growth or viability, MTT | 1.03 |
| CC(=O)[O][Pt]1([O]C(C)=O)[O]C(=O)C(=O)[O]1.NC1CCCCC1N | cell growth | 48.3 ± 3.33 |
| CCCC(CCC)C(=O)[O][Pt]([NH2])([NH2])([Cl])([Cl])[O]C(=O)c1ccccc1OC(C)=O | cell growth or viability, MTT | 4.51 |
| [Cl][Au].[Se]=c1n(C23CC4CC(CC(C4)C2)C3)ccn1C12CC3CC(CC(C3)C1)C2 | cell growth or viability, MTT | 2.9 |
| CC12CCCC(n3cc(C(=O)N4CCC(N)CC4)nn3)(C1)C1CC(C)(C)C1CC2 (centres unmarked) | cell growth or viability, CCK-8 | 15.3 |
| CC(C)c1cccc(C(C)C)c1-n1ccn(-c2c(C(C)C)cccc2C(C)C)c1=[Se].[Cl][Ag] | cell growth or viability, MTT | 5.4 |
| CC12CCCC(NS(=O)(=O)C3CCN(Cc4ccccc4)C3)(C1)C1CC(C)(C)C1CC2 (centres unmarked) | cell growth or viability, CCK-8 | 16.2 |
| CC(=O)[O][Pt]([Cl])([Cl])[O]C(=O)CCCc1ccccc1.N.N | cell growth | 5.17 ± 0.85 |
| CC(C)c1cccc(C(C)C)c1-n1c(Cl)c(Cl)n(-c2c(C(C)C)cccc2C(C)C)c1=[Se].[Cl][Au] | cell growth or viability, MTT | 1.8 |
| CNCCNC(=O)c1cn(C23CCCC(C)(CCC4C2CC4(C)C)C3)nn1 (centres unmarked) | cell growth or viability, CCK-8 | 15.6 |
| CC(C)c1cccc(C(C)C)c1-n1c2c([n+](-c3c(C(C)C)cccc3C(C)C)[c]1[Cu-][Cl])-c1cccc3cccc-2c13 | cell growth or viability, MTT | 5.9 |
| CN(C)CCCS(=O)(=O)NC12CCCC(C)(CCC3C1CC3(C)C)C2 (centres unmarked) | cell growth or viability, CCK-8 | 13 |
| [Cl][Au-][c]1n(-c2c(C(c3ccccc3)c3ccccc3)cc(C(c3ccccc3)c3ccccc3)cc2C(c2ccccc2)c2ccccc2)c2c([n+]1-c1c(C(c3ccccc3)c3ccccc3)cc(C(c3ccccc3)c3ccccc3)cc1C(c1ccccc1)c1ccccc1)-c1cccc3cccc-2c13 | cell growth or viability, MTT | > 50 |
| CN1CCCC1CS(=O)(=O)NC12CCCC(C)(CCC3C1CC3(C)C)C2 (centres unmarked) | cell growth or viability, CCK-8 | 16.9 |
| CC(=O)[O][Pt]([Cl])([Cl])[O]C(C)=O.N.N | cell growth | 40.2 ± 2.86 |
| CC(=O)Oc1ccccc1C(=O)[O][Pt]([NH2])([NH2])([Cl])([Cl])[O]C(=O)CCCc1ccccc1 | cell growth or viability, MTT | 1.86 |
| C=C[CH2][Pd-]([Cl])[Cl].CC(C)c1cccc(C(C)C)c1-n1c[n+](-c2c(C(C)C)cccc2C(C)C)c2c1-c1cccc3cccc-2c13 | cell growth or viability, MTT | 10.4 |
| CCCC(CCC)C(=O)[O][Pt]1([OH])[O]C(=O)C(=O)[O]1.NC1CCCCC1N | cell growth | 51.5 ± 3.26 |
| Cc1c(C)n(-c2c(C(C)C)cccc2C(C)C)c(=[Se])n1-c1c(C(C)C)cccc1C(C)C.[Cl][Au] | cell growth or viability, MTT | 1.6 |

A few entries again:
| SMILES | test | IC50 [µM] |
| --- | --- | --- |
| CNCCNC(=O)c1cn(C23CCCC(C)(CCC4C2CC4(C)C)C3)nn1 (centres unmarked) | cell growth or viability, CCK-8 | 15.6 |
| CC(C)c1cccc(C(C)C)c1-n1c2c([n+](-c3c(C(C)C)cccc3C(C)C)[c]1[Cu-][Cl])-c1cccc3cccc-2c13 | cell growth or viability, MTT | 5.9 |
| CN(C)CCCS(=O)(=O)NC12CCCC(C)(CCC3C1CC3(C)C)C2 (centres unmarked) | cell growth or viability, CCK-8 | 13 |
